Experimental data collected from several papers.
Each line is one published result; not all experiments were run side by side. Several values in a cell are separate wells, animals, samples, runs or records. In brackets after ≈: the same amount, converted by molar mass.

SMILES	target or system	test	system	setting	scale	quantity	value
CC(C)N1CCC(NC2CCN(c3cccc(-c4cc5cc(F)ccc5[nH]4)c3)CC2)CC1	BT-549					CC50	6.55 µM
C=C1C[C@@H]2[C@H](CC[C@]3(C)C(=O)CC[C@@H]23)[C@@]2(C)C=CC(=O)C=C12	primary rat hippocampal/cortical neuron-glia cultures			1 µM, with: 1 µM α-synuclein oligomers		reversal of trafficking deficit	15%
O=C(Cc1ccc(Cl)cc1)N[C@H]1CCOC1=O	ExpR1 (Pectobacterium carotovorum)	cellulase activity, agonist	Pectobacterium carotovorum, single-ExpR1 strain	200 µM, 4 h	baseline: OHHL	activation	5%
O=[N+]([O-])c1cc2cc3ccc4oc([N+](=O)[O-])cc4c3cc2o1	Mycobacterium bovis BCG		1173 P2			MIC90	0.03 µg/mL (≈ 0.101 µM)
CN1C(=O)C(C2C3=C(CC(C)(C)CC3=O)Oc3c(O)cccc32)C(=O)N(C)C1=O (stereo not shown)	3T3-L1 adipocytes	qPCR, measured: ATGL		IC20, 14 days	baseline: untreated mature adipocytes	mRNA level	increased
COc1cc(CCC[P+](c2ccccc2)(c2ccccc2)c2ccccc2)c(OC)c2c1OCO2.[I-]	UACC-62	SRB				TGI	-5.37 log M
CS(=O)(=O)Nc1ncn(-c2cc(F)c(COc3ccc(OS(=O)(=O)F)cc3)c(F)c2)n1	Eurofins safety panel targets (human)			10 µM		inhibition	≤ 50%
CCCCC1(CCCC)CN(c2ccccc2)c2cc(SC)c(OCC(=O)N[C@@H](C(=O)NCC(=O)O)c3ccccc3)cc2S(=O)(=O)C1		measured: LDL cholesterol	human, serum	20 mg once daily, day 1		serum LDL-C	99.9 mg/dL
O=C(Cc1ccccc1)NC1CCOC1=O (stereo not shown)	ExpR1 (Pectobacterium carotovorum)	cellulase activity, antagonist	Pectobacterium carotovorum, single-ExpR1 strain	5 µM, 4 h, with: OHHL 5 µM		inhibition	4%
COc1c(CCC[P+](c2ccccc2)(c2ccccc2)c2ccccc2)cc2c(c1OC)OCO2.[I-]	SNB-19	SRB				TGI	-4.89 log M
CC[C@@H](NC(=O)CNC(=O)[C@@H](CC(C)C)NC(=O)CNC(=O)[C@H](N)CCC(N)=O)C(=O)N[C@H](CC(=O)O)C(=O)N[C@H](CCC(=O)O)C(=O)N[C@H](CCSC)C(=O)N[C@H](CC(C)C)C(=O)N[C@H](CCC(N)=O)C(=O)NCC(=O)N[C@H](Cc1ccccc1)C(=O)N[C@H](C)C(=O)N[C@@H](C(=O)N[C@H](C)C(=O)N[C@@H](C(=O)N[C@H](CCCCN)C(=O)N[C@H](CCSC)C(=O)NCC(=O)N[C@H](C)C(=O)N[C@@H](C(=O)N[C@H](CCCCN)C(=O)N[C@H](C)C(=O)N[C@H](CC(=O)O)C(=O)O)[C@H](C)O)C(C)C)C(C)C	hemagglutinin influenza A/California/07/2009 H1N1					IC50	81 µM
C[C@H]1O[C@@H](O[C@H]2CC[C@@]3(C)[C@@H](CC[C@]4(C)[C@@H]3C=C[C@]35OC[C@@]6(CCC(C)(C)C[C@H]63)[C@@H](O)C[C@]54C)[C@]2(C)CO)[C@H](O)[C@@H](O[C@@H]2O[C@H](CO)[C@@H](O)[C@H](O)[C@H]2O)[C@H]1O			Mus musculus, pair-fed, AAV8-TBG-SIRT1 shRNA hepatic SIRT1 knockdown, serum	oral, high dose, 5 h		triglycerides	0.765 mM and 0.567 mM and 0.679 mM and 1.17 mM and 0.984 mM and 1.14 mM
Cc1cn(-c2cc(NC(=O)c3ccc(C)c(Nc4nccc(-c5cccnc5)n4)c3)cc(C(F)(F)F)c2)cn1			human patients	dose not given, 12 months vs baseline, within treated group, unit not given	baseline: baseline	ADAS-Cog maze time change	1.25
COc1ccc(-n2nc(C(C)=O)s/c2=N\N=C(/C)c2ccc(NC(C)=O)cc2)cc1	MCF7			5 µM		toxicity	93.7% and 78.8%
CC(C)n1ncc2c(C(=O)NCC3(C)CNC3)cc(C3CC3)nc21	Enterovirus D68	viral replication	RD, US/MO/14-18947	3 µM	baseline: untreated	plaque area	0%
COCCC1=C(C(=O)OC)C(c2ccc(Cl)cc2)C2=C(CC(c3cc(OC)c(OC)c(OC)c3)CC2=O)N1 (single isomer, unassigned)	J774.A1	cytotoxicity				EC50	> 20 µM
N=C(N)c1ccc(OCc2ccc(Br)cc2COc2ccc(C(=N)N)cc2)cc1	Escherichia coli		mcr-2 polymyxin-resistant	20 h, compound alone		MIC	200 µg/mL (≈ 441 µM)
C#CC[C@@H](N)C(=O)N[C@H](CO)C(=O)N[C@@H](C(=O)N[C@H](CO)C(=O)N[C@H](CCC(=O)O)C(=O)N[C@@H](C(=O)N[C@H](CCC(N)=O)C(=O)N[C@H](CC(C)C)C(=O)N[C@H](CCSC)C(=O)N[C@H](Cc1c[nH]cn1)C(=O)N[C@H](CC(N)=O)C(=O)N[C@H](CC(C)C)C(=O)NCC(=O)N[C@H](CCCCN)C(=O)N[C@H](Cc1c[nH]cn1)C(=O)N[C@H](CC(C)C)C(=O)NCC(=O)N[C@H](CO)C(=O)N[C@H](Cc1c[nH]c2ccccc12)C(=O)N[C@H](CCC(=O)O)C(=O)N[C@H](CCCNC(=N)N)C(=O)N[C@@H](C(=O)N[C@H](Cc1ccc(O)cc1)C(=O)N[C@H](Cc1ccccc1)C(=O)N[C@H](CC(C)C)C(=O)N[C@H](CCCNC(=N)N)C(=O)N[C@H](Cc1ccccc1)C(=O)N[C@H](CCCCN)C(=O)N[C@H](CC(C)C)C(=O)N[C@H](CCC(N)=O)C(=O)N[C@H](CC(C)C)C(=O)N[C@@H](C(N)=O)C(C)C)C(C)C)[C@H](C)CC)C(C)C	hemagglutinin influenza A/California/07/2009 H1N1					IC50	140 µM
CSc1cccc(CC(=O)N[C@H]2CCOC2=O)c1	ExpR1 (Pectobacterium carotovorum)	cellulase activity, agonist	Pectobacterium carotovorum, single-ExpR1 strain	200 µM, 4 h	baseline: OHHL	activation	0%
CN1CC[C@]23c4c5ccc(O)c4O[C@H]2[C@@H](OS(=O)(=O)O)C=C[C@H]3[C@H]1C5		hot water tail withdrawal test	STZ-diabetic Sprague-Dawley rats	dose not given		time to peak effect	30 to 45 min
CC[C@H](C)[C@@H]1NC(=O)[C@@H]2CCCN2C(=O)[C@H](CC(C)C)NC(=O)[C@H](CC(C)C)NC(=O)CNC(=O)[C@@H](NC(=O)[C@@H](NC(=O)[C@H](CC(=O)O)NC(=O)CNC(=O)[C@@H](NC(=O)[C@H](C)NC(=O)CNC(=O)[C@H](CCCCN)NC(=O)[C@H](CC(C)C)NC(=O)[C@H](CC(C)C)NC(=O)[C@H](CCCCN)NC(=O)CNC(=O)[C@@H](NC(=O)[C@@H](N)CC(C)C)C(C)C)C(C)C)C(C)C)CSSC[C@@H](C(=O)O)NC1=O		RNA-seq, measured: Nat1	mouse, traumatic brain injury model, frontal cortex and hippocampus	dose not given	baseline: TBI alone	log2 fold change	1.23
CN1CCN(C2(CNC3CCN(c4cccc(-c5cc6cc(F)ccc6[nH]5)c4)CC3)CCC2)CC1	PC-3					CC50	6.3 µM

For quick reference, copied from above:
SMILES	target or system	test	system	setting	scale	quantity	value
CC(C)N1CCC(NC2CCN(c3cccc(-c4cc5cc(F)ccc5[nH]4)c3)CC2)CC1	BT-549					CC50	6.55 µM
C=C1C[C@@H]2[C@H](CC[C@]3(C)C(=O)CC[C@@H]23)[C@@]2(C)C=CC(=O)C=C12	primary rat hippocampal/cortical neuron-glia cultures			1 µM, with: 1 µM α-synuclein oligomers		reversal of trafficking deficit	15%
O=C(Cc1ccc(Cl)cc1)N[C@H]1CCOC1=O	ExpR1 (Pectobacterium carotovorum)	cellulase activity, agonist	Pectobacterium carotovorum, single-ExpR1 strain	200 µM, 4 h	baseline: OHHL	activation	5%
